{"data": "Results from different studies", "note": "Compare with care: the assays were run in different laboratories.", "sequence of UniProt P07949 (whole entry, unmodified, looked up)": "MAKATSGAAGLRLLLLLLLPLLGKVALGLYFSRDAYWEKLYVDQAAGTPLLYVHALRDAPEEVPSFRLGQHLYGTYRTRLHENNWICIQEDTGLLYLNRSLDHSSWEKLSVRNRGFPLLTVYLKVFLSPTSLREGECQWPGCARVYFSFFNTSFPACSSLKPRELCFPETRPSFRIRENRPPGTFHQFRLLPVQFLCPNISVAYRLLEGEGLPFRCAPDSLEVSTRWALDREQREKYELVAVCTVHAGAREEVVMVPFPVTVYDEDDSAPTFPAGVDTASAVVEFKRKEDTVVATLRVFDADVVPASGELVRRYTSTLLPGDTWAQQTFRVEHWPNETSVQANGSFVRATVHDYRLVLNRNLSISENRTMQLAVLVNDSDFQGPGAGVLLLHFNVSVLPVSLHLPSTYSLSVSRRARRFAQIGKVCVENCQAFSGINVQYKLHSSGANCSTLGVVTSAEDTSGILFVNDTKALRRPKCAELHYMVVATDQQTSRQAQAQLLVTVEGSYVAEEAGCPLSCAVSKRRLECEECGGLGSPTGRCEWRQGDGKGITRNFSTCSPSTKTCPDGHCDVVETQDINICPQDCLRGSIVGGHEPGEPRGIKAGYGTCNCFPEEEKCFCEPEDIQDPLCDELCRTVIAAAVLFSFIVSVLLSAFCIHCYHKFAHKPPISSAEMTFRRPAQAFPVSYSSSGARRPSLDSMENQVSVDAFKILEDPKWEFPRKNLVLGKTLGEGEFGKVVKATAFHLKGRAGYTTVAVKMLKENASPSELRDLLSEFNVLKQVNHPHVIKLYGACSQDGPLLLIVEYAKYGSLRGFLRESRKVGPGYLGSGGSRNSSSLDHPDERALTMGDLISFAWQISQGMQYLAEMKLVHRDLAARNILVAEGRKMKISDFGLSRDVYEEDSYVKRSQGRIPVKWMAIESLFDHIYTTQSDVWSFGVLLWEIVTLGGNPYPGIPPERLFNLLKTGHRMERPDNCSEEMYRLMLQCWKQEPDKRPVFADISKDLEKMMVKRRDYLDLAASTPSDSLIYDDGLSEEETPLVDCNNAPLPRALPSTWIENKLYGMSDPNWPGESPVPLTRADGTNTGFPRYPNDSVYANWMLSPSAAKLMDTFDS", "sequence of UniProt O14757 (whole entry, looked up)": "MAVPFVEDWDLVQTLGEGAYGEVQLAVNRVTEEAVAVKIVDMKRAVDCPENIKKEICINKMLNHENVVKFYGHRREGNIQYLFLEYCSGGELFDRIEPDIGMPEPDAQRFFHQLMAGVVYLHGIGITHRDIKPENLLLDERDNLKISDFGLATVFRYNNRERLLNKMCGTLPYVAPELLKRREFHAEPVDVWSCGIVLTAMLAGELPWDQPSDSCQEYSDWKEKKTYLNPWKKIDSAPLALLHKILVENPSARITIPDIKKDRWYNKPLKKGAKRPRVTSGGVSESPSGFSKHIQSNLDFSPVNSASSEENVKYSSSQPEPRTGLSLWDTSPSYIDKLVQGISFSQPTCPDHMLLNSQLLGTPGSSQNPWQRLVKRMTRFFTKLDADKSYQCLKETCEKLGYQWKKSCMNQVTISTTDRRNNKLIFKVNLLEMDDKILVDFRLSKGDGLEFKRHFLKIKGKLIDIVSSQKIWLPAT", "sequence of UniProt Q13164 (whole entry, looked up)": "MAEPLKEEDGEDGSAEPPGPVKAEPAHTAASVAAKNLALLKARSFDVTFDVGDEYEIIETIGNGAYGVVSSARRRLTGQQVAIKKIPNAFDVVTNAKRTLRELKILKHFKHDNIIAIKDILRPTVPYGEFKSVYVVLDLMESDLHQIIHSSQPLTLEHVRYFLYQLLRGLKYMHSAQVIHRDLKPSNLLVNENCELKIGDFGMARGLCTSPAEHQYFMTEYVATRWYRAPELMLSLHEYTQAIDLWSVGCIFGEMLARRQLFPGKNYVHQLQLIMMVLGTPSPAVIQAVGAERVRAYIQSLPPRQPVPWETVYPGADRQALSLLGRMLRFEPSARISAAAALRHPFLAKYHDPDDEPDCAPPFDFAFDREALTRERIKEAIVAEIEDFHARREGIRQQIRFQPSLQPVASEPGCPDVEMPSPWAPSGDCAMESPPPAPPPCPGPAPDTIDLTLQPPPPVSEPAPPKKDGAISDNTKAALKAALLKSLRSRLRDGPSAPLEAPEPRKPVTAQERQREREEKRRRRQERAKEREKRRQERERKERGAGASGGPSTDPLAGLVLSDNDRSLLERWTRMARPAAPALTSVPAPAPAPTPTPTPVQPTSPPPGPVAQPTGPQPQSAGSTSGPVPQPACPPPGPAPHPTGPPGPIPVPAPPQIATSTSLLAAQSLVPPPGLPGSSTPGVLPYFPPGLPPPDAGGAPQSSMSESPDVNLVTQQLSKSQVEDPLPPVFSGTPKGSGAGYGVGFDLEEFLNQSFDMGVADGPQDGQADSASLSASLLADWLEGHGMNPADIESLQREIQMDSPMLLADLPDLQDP", "sequence of UniProt P51451 (whole entry, looked up)": "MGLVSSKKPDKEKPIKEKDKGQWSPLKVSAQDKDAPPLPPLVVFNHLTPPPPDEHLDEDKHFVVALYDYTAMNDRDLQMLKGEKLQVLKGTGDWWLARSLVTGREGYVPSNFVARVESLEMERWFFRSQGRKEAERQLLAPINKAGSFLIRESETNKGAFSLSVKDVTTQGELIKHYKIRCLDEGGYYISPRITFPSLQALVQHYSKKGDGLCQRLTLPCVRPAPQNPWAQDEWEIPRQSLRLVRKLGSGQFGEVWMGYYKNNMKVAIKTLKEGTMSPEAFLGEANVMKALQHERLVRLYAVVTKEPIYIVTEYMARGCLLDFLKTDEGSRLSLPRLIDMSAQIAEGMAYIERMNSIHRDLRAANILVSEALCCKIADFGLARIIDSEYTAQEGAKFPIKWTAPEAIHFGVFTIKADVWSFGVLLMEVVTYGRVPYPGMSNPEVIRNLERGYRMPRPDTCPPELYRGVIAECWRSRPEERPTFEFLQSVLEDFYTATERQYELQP"}
{"Structure (SMILES)": "COc1cc(-c2cncc3c2CN(C)Cc2cc(N4CCNCC4)ccc2-3)cc(OC)c1OC", "target": "RET (Homo sapiens, UniProt P07949, V804L)", "assay": "enzyme activity, inhibitor", "setting": "1 µM", "measurement": "remaining activity", "value": "108%"}
{"Structure (SMILES)": "CNc1ncc2c(/C=C/C(=O)N3CCC(OC)CC3)nn(Cc3cccc(C(F)(F)F)c3)c2n1", "target": "MAPK7 (Homo sapiens, UniProt Q13164)", "assay": "enzyme activity, inhibitor, radiometric", "setting": "1 µM", "measurement": "remaining activity", "value": "103%"}
{"Structure (SMILES)": "Cc1cc([C@@H](C)Nc2ccccc2C(=O)O)c2nc(N3CCC(F)(F)CC3)c(C#N)c(=O)n2c1", "target": "CHEK1 (Homo sapiens, UniProt O14757)", "assay": "binding, competition with immobilised ligand", "setting": "10 µM", "measurement": "remaining binding", "value": "97%"}
{"Structure (SMILES)": "C=CC(=O)N1CCC(COCC(=O)N2CCN(c3nc(-c4cnc(N)nc4C(F)F)nc(N4CCOC[C@@H]4C)n3)CC2)CC1", "target": "BLK (Homo sapiens, UniProt P51451)", "assay": "binding, competition with immobilised ligand", "setting": "1 µM", "measurement": "remaining binding", "value": "86%"}
{"note": "Repeated from above:"}
{"Structure (SMILES)": "CNc1ncc2c(/C=C/C(=O)N3CCC(OC)CC3)nn(Cc3cccc(C(F)(F)F)c3)c2n1", "target": "MAPK7 (Homo sapiens, UniProt Q13164)", "assay": "enzyme activity, inhibitor, radiometric", "setting": "1 µM", "measurement": "remaining activity", "value": "103%"}
